Assay results from different studies.
Each numbered part is a random draw from the data of one study; scales do not carry over between parts. Substitutions count along the parent as printed.

Set 1 — technique: RNA Bind-n-Seq; molecule type: RNA; sample: in vitro; concentration: not given; baseline: input RNA pool; direction: higher = stronger binding
Target: RING finger protein unkempt homolog, zinc fingers 1-6, GST-SBP tag (UNK, Homo sapiens, UniProt Q9C0B0, residues 30-357)
Chain of UniProt Q9C0B0 (30-357, looked up): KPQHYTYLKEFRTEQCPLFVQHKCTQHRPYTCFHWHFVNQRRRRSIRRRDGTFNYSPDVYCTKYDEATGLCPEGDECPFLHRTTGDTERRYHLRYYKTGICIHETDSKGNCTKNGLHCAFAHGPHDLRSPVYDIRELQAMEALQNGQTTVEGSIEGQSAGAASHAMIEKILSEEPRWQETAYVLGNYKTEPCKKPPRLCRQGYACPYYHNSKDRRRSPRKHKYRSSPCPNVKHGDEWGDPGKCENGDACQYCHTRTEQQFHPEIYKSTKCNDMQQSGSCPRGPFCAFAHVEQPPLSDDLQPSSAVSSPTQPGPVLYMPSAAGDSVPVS
Notes: RNA with constant flanks, human-mouse chimeric sites, ends assumed
All sequences stand within: GGGAGUUCUACAGUCCGACGAUC … CAACAGAGGAUUGAGCAUCA
Oligonucleotide	bound/input enrichment [ratio]
GAUCUCGGGCCCUCCCCAGGGGCCUCCUUUCGUAUAGUAACUGUCAGUGCAUCAGAUACUUUCAGCUGCAACUCCCUACUGGGUGGGGCACCCAUUUCAGGCAGAAGGUUUUGGUACCCU	0.256
CACACACUCUUCUGCGGGACCCUCAUCUUGCAGGCCCGGGCCUAUGUGGGACCGCACGUGCUAGCAGUGGUGACCCGGACAGGGUUCUGCACGGCAAAAGGGGGCCUGGUGAGCUCCAUC	0.144
GAUCAUGAACCACCAUCCAGAAAUGAAAUGAGAUUACCCAAGACGAGCAAAACAGCUGCGCUACAGAAAAGUAAACUUAACCUUGCAGAGUUCCUUAAUGAAGAUACAAGUUAAGAGAGC	0.216
AAAGAACUACUGAGGCAAGGCAGCAAAUUUAGGAGAGACAUUUCAACACUAUUAAUAGAGUUAGGAUUCCAAAUUAAAAAGAAAACUAAAAGAUUGUACAUCAACAAAGCCAAUGUGUGG	3.65
GCUGAAAAUGAAGAAGAGGCAGCUGAUGUCUGGUACAACCUGGGGCACAUAGCUGUGGGAAUCGGAGAUACAAACUUGGCCCAUCAGUGCUUCAGGCUGGCCCUGGUCAACAACAACCAC	0.156
ACUCUUGACUCUUUCCAUCCUCUUCCUUUCCCUCUUGAUAUUCAAGGCCAUGAAUCCCAAAAUAGCUAUCUAUCUUACUAGCACCCAAACAGAGGUGGAAUAAAUCCACCCCAGUGUCUC	3.68
CUGAGGAAUACCACUGAGAGACCUUAAAAGAAUCAUUUGAGGGCUCUGUUCGUGCAAAGGAUAGUUAUGAUCGGGAAACUGGUUCUUCCAAAGGGUUUGGUUUUGUAGACUUUAAUAGUG	0.885
GUCAACAGUUGUCUCAACCCCAUCCUCUACGCCUUCCUGGAUGAGAACUUCAAGGCCUGCUUCCGCAAGUUCUGCUGUGCAUCUGCCCUGCGCCGGGACGUGCAGGUGUCUGACCGCGUG	0.377

Set 2 — target: CCNE1, cyclin fold, Cln2 fusion (human); technique: yeast growth competition, sequencing; sample: yeast; notes: strong parent motif; baseline: not given; direction: higher = stronger binding; parent: viral docking peptide; YKVKRRLVFGADD
Variant	normalised enrichment score
K4N	4.63
A11W	5.96
L7H	0.149
V8M	6.01
V8F	7.29
V3L	0.962
F9H	0.344
R6A	2.89
R6K	5.96
G10I	5.15
R6V	5.63
K2S	5.78
K2T	6.46
V3S	1.2
K2N	6.36

Set 3 — technique: protein-binding microarray; molecule type: double-stranded DNA, one strand shown; sample: in vitro; concentration: not given; direction: higher = stronger binding
Target: Max-binding protein MNT, bHLH-zipper, MAX partner unstated (MNT, Homo sapiens, UniProt Q99583, residues 220-300)
Notes: k-mer, scored over probes, only values ≥0.25
Target sequence (chain): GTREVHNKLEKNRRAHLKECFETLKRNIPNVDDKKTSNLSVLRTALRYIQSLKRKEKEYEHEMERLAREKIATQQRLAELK
Oligonucleotide	E-score
CCTGCACG	0.355
ACGTGAAC	0.339
ACATGTAG	0.287
CCACGAGA	0.352
CATAGCAC	0.291
ATGGTGTG	0.263
CACGCGTG	0.466
CATGTAGC	0.278

Set 4 — target: vanadate, free oxyanion; technique: microfluidic competitive inhibition; sample: in vitro, cell-free expressed; concentration: not given; direction: lower = stronger binding
Notes: derived from inhibition constants, unchanged parent 676 nM
Parent: PafA, mature enzyme, eGFP fusion (Elizabethkingia meningoseptica, UniProt Q9KJX5); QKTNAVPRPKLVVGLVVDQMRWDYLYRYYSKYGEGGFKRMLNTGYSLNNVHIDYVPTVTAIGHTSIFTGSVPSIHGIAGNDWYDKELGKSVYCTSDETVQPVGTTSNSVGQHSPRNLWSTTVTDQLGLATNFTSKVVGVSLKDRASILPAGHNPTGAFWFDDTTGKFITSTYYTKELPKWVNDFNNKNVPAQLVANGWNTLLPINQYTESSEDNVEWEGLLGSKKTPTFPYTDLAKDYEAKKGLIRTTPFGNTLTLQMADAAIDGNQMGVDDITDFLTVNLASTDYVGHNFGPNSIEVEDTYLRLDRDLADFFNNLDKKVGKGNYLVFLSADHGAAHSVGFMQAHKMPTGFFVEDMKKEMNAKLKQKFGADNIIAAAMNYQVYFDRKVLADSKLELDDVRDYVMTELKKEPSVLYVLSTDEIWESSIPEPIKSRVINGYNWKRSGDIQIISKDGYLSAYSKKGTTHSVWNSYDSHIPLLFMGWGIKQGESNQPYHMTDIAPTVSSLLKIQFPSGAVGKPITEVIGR
Variant	oxyanion analog dissociation constant [µM]
E429G	0.674
T464G	0.641
G33V	0.594
T232V	1.64

A few entries again (set 1):
Oligonucleotide	bound/input enrichment [ratio]
AAAGAACUACUGAGGCAAGGCAGCAAAUUUAGGAGAGACAUUUCAACACUAUUAAUAGAGUUAGGAUUCCAAAUUAAAAAGAAAACUAAAAGAUUGUACAUCAACAAAGCCAAUGUGUGG	3.65
GCUGAAAAUGAAGAAGAGGCAGCUGAUGUCUGGUACAACCUGGGGCACAUAGCUGUGGGAAUCGGAGAUACAAACUUGGCCCAUCAGUGCUUCAGGCUGGCCCUGGUCAACAACAACCAC	0.156
ACUCUUGACUCUUUCCAUCCUCUUCCUUUCCCUCUUGAUAUUCAAGGCCAUGAAUCCCAAAAUAGCUAUCUAUCUUACUAGCACCCAAACAGAGGUGGAAUAAAUCCACCCCAGUGUCUC	3.68
CUGAGGAAUACCACUGAGAGACCUUAAAAGAAUCAUUUGAGGGCUCUGUUCGUGCAAAGGAUAGUUAUGAUCGGGAAACUGGUUCUUCCAAAGGGUUUGGUUUUGUAGACUUUAAUAGUG	0.885
